Results gathered from unrelated publications.
Each line is one published result; not all experiments were run side by side. Values joined by “and” are separate records of one study, mostly repeats; a detail may differ.
LCK: Tyrosine-protein kinase Lck (LCK, Homo sapiens, UniProt P06239)
LCK phosphorylated: Tyrosine-protein kinase Lck, phosphorylated (LCK, Homo sapiens, UniProt P06239)

C=CC(=O)N1Cc2nc(-c3cc(-c4cc(Cl)cnc4Cl)c(F)cc3F)n(-c3ccncn3)c2C1 has an inhibition of -0.5% (LCK; enzyme activity, inhibitor; 1 µM).
Cc1[nH]nc2c1N=C(c1ccccc1Cl)c1cnc(N3CCOCC3)cc1N2 gave an inhibition of 6.7% (LCK; enzyme activity, inhibitor; 0.5 µM).
For COc1ccc(O)cc1-c1c[nH]c2ncc(-c3cncc(C(=O)N(C)C)c3)cc12, the inhibition was 36.7% (LCK; binding, competition with immobilised ligand; 0.2 µM).
For COc1ccc(NC(=O)Nc2ccc3c(c2)C(=O)N(C(C)CO)CC(C)C(CN(C)Cc2ccc4c(c2)OCO4)O3)cc1 (stereo not shown), the remaining activity was 90% (LCK; kinase activity; 0.03 µM; reference: control).
The inhibition of COc1ccc(C#CC2=C[C@H]3C[C@@]4(OC(=O)C=C24)[C@H]2CC[C@H](C(OC)OC)N32)cc1 is reported as -17% (LCK; enzyme activity, inhibitor; 10 µM).
O=C(Cc1ccc(OCc2ccccc2)cc1)NC1(C(=O)O)CCN(C(=O)c2ccc(-c3cccc(Cl)c3)cc2)CC1 — result for “activity vs control”: 113% (LCK phosphorylated; enzyme activity, inhibitor; 10 µM).
With C=CC(=O)N1CCCC(n2c(=O)c3ncccc3n(Cc3ccc(Oc4ccccc4)cc3)c2=O)C1 (stereo not shown) the remaining binding was 100% (LCK; cell-free assay, competition with immobilised ligand; 1 µM).
The remaining binding of C=CC(=O)N1CCc2ccc(-n3c(=O)ccc4cnc5ccc(-c6cnn(C)c6)cc5c43)cc21 is reported as 100% (LCK; KINOMEscan; 1 µM; reference: DMSO control).
Cc1ccc(C)c(-c2ccc3nc(NC(=O)C4CCCCC4)nn3c2)c1 gave a remaining activity of 79% (LCK; enzyme activity, Dundee kinase panel; 10 µM).
Cc1cccc(O[C@H]2CCC[C@@H](C(C)CNCc3ccncc3)C2)c1 (relative stereo) has an inhibition of 4% (LCK; enzyme activity, inhibitor; 1 µM).
With Nc1ncc(-c2cc(-c3cnn(CC(F)(F)F)c3)ncc2F)nc1C(=O)NC1CNCC(F)C1 (stereo not shown) the remaining activity was 95.3% (LCK; enzyme activity; 1 µM; reference: DMSO control).
O=C=[N][Ru-4]123([n]4c5ccc(O)cc5c5c6c(c7cc(F)c[n+]1c7c54)C(=O)NC6=O)[S+]1CC[S+]2CC[S+]3CC1 (stereo not shown) gave a remaining activity of 105% (LCK; enzyme activity; 100 nM, human enzyme, with: 10 µM ATP; reference: untreated).
The remaining activity of Cc1cccc(-c2ccc3nc(NC(=O)C4CCCO4)nn3c2)c1 (stereo not shown) is reported as 71% (LCK; enzyme activity, Dundee kinase panel; 10 µM).
The inhibition of NC(=O)C[C@H]1CCc2sc3ncnc(O[C@H]4CC[C@H](N5CCOCC5)CC4)c3c21 is reported as 11% (LCK; enzyme activity, inhibitor; 10 µM).
C=CC(=O)Nc1cccc(-c2cnc3[nH]cc(C(=O)NC(C)(C)C)c3n2)c1 has an inhibition of 13% and 12% (LCK; kinase activity; 0.1 µM).
The remaining binding of Nc1ncc2c(n1)-c1c([nH]c3ccc(C4=CCOCC4)cc13)CCC2 is reported as 100% (LCK; binding, competition with immobilised ligand; 1 µM).
COc1cc(-n2cc3cc(F)cc(C(N)=O)c3n2)cc(Cl)c1C1CC(O)(CCO)Cc2ccccc21 (stereo not shown) has an inhibition of 6.63% (LCK; enzyme activity, inhibitor; 10 µM).
CNC(=O)C[C@H](Cc1ccc(C#N)cc1)NC(=O)c1cc(-c2ccc(CN[C@H](C)c3ccc(C)cc3)o2)ccc1Cl: “activity vs control” 94% (LCK phosphorylated; enzyme activity, inhibitor; 1 µM).
For COCC12C(=O)NC3C4(C(OC)CC1O)C1CC5(O)C(OC)C(O)C(OC(C)=O)(C1C5OC(=O)c1ccccc1)C3(O)C(OC)C24 (stereo not shown), the remaining activity was 102% and 95% (LCK; kinase activity, inhibitor, ProQinase kinase profiling; 25 µM; reference: control).
The inhibition of COc1ncc2nc(C)n(Cc3ncc(S(N)(=O)=O)cc3F)c2c1-c1ccccc1 is reported as -17.2% (LCK; enzyme activity, inhibitor; 10 µM, safety panel).
With CC(C)=CC1OC(C)(C)C2C=C3C(=O)C(Cl)=CC(O)C3C3C(O)C4OC4C(=O)C132 (stereo not shown) the remaining binding was 97% (LCK; cell-free assay, competition with immobilised ligand; 10 µM).
COc1ccc(C(=O)/C=C/c2ccccc2-c2c[nH]c3ccc(C#N)cc23)c(O)c1 has an inhibition of 27% (LCK; enzyme activity, inhibitor; 20 µM).

Excerpt of the above:
O=C(Cc1ccc(OCc2ccccc2)cc1)NC1(C(=O)O)CCN(C(=O)c2ccc(-c3cccc(Cl)c3)cc2)CC1 — result for “activity vs control”: 113% (LCK phosphorylated; enzyme activity, inhibitor; 10 µM).
With C=CC(=O)N1CCCC(n2c(=O)c3ncccc3n(Cc3ccc(Oc4ccccc4)cc3)c2=O)C1 (stereo not shown) the remaining binding was 100% (LCK; cell-free assay, competition with immobilised ligand; 1 µM).
The remaining binding of C=CC(=O)N1CCc2ccc(-n3c(=O)ccc4cnc5ccc(-c6cnn(C)c6)cc5c43)cc21 is reported as 100% (LCK; KINOMEscan; 1 µM; reference: DMSO control).
